Published values pooled from the literature.
Protocols differ between the studies behind these lines. ± marks the error that the study gave.

COc1cc(CNC(=O)C[C@H](C)CCC=C(C)C)ccc1OCc1cn(-c2cccc(C(F)(F)F)c2)nn1  growth (786-0; SRB; 10 µM, 48 h): 93%
COc1ccc(CC2COC(=O)C2Cc2ccc3c(c2)OCO3)cc1OC (mixture of isomers)  colony formation (A2780cis; IC50, 72 h): ~80%
COc1cc(CNC(=O)C[C@H](C)CCC=C(C)C)ccc1OCc1cn(-c2ccc(Cl)c(Cl)c2)nn1  growth percent (MOLT-4 leukaemia cells; SRB; 10 µM, 48 h): 68.7%
O=C1OCC2=C1C(c1cccc(Br)c1)C1=C(N2)C(=O)c2ccccc2C1=O (stereo not drawn)  total apoptotic cells (SK-LU-1 cells; annexin V/PI; 0.32 µM, 24 h): 21.1%
COc1cc(CNC(=O)C[C@H](C)CCC=C(C)C)ccc1OCc1cn(-c2ccccc2Cl)nn1  growth (MDA-MB-231/ATCC; SRB; 10 µM, 48 h): 72.6%
CSCC[C@H](NC(=O)[C@@H](NC(=O)[C@H](CC(C)C)NC(=O)[C@H](CC(N)=O)NC(=O)[C@@H](NC(=O)[C@@H]1CCCN1C(=O)[C@H](CCCNC(=N)N)NC(=O)[C@@H](N)CCC(N)=O)C(C)C)[C@@H](C)O)C(=O)N[C@@H](CCCNC(=N)N)C(=O)N[C@@H](CCCNC(=N)N)C(=O)N[C@@H](CCCCN)C(=O)N[C@@H](CC(C)C)C(=O)N[C@@H](CCCNC(=N)N)C(=O)N[C@@H](CCCCN)C(=O)N[C@@H](Cc1c[nH]cn1)C(=O)N[C@@H](CC(N)=O)C(=O)N[C@H]1CSSC[C@@H](C(=O)N[C@@H](CCSC)C(=O)N2CCC[C@H]2C(=O)N[C@@H](CC(C)C)C(=O)N[C@@H](Cc2c[nH]cn2)C(=O)N[C@@H](CO)C(=O)N[C@@H](CCCNC(=N)N)C(=O)N[C@H](C(=O)N2CCC[C@H]2C(=O)N[C@@H](Cc2ccccc2)C(=O)N2CCC[C@H]2C(=O)O)C(C)C)NC(=O)[C@H](CCCNC(=N)N)NC(=O)[C@H](CCCNC(=N)N)NC(=O)[C@H](CCC(N)=O)NC(=O)[C@H](CC(C)C)NC1=O  BRET signal (HEK293; β-arrestin2 recruitment, BRET; baseline: wild type receptor): decreased
Cc1ccc(NC(=O)c2c(C)oc3ccc(O)c(CN4CCCCCC4)c23)cc1  cells in G1 phase (L-363; propidium iodide flow cytometry; 10 µM, 72 h): ~85%
COc1cc(CNC(=O)C[C@H](C)CCC=C(C)C)ccc1OCc1cn(-c2ccc(Cl)cc2Cl)nn1  growth (A549/ATCC; SRB; 10 µM, 48 h): 59.4%
O=Cc1c(O)ccc2ccccc12  log2 fold change (HUVEC; RNA sequencing, refers to: HSPA6; 75 µM, 24 h; baseline: DMSO): 3.52
CC(=O)c1c(C)c2cnc(Nc3ccc(N4CCNCC4)cn3)nc2n(C2CCCC2)c1=O  S6 phosphorylation (CHO cells; Western blot; concentration not given): no effect
Cc1nn(C)c(O)c1-c1nc2cc(Cl)c(Cl)cc2[nH]c1=O  apoptotic cells (TF-1; annexin V flow cytometry; concentration not given, 24 h, treated at IC50): ~30%
CC(C)=CCc1c(-c2cc(O)c(O)cc2O)oc2c(CC=C(C)C)c(O)cc(O)c2c1=O  selectivity ratio (SAS; cell growth, MTT; baseline: IC50 HaCaT over IC50 SAS): 1.8
COc1cc(CNC(=O)C[C@H](C)CCC=C(C)C)ccc1OCc1cn(-c2cccc([N+](=O)[O-])c2)nn1  growth (786-0; SRB; 10 µM, 48 h): 71.4%
CO[C@@H]1[C@@H](O[C@@H]2O[C@H](C)[C@@H](O[C@H]3C[C@@](C)(O)[C@@H](OC(=O)Cc4ccc(C(C)(C)C)cc4)[C@H](C)O3)[C@H](N(C)C)[C@H]2O)[C@@H](CC=O)C[C@@H](C)[C@@H](O[C@H]2CC[C@H](N(C)C)[C@@H](C)O2)/C=C/C=C/C[C@@H](C)OC(=O)C[C@H]1O  selectivity index (GES-1 and HGC-27; cell growth, CCK-8; 72 h; baseline: IC50 GES-1 over HGC-27): 4.67
Cc1nn(-c2ccc(S(=O)(=O)N[C@H](CO)CC(C)C)cc2)c2nn3nnnc3nc12  necrotic cells (HT-29; AO/EB staining; 1 µM, 24 h): 16.5 ± 2.12%
CCOc1c(C(C)(C)O)sc2cnc(Nc3ccc(N4CCC(N5CC6(COC6)C5)CC4)cc3OC)nc12  Ca spark frequency (human atrial cardiomyocytes; confocal line scan; 1, 3 and 10 µM; baseline: vehicle): decreased
CN(C)c1cc2ccccc2c(N)n1  collagen I protein level (LX-2; western blot; concentration not given, 6 h pre-treatment, with: TGF-β1 5 ng/mL for 24 h): inhibited
COc1ccc([C@@H]2CC(=O)c3c(O)cc(O[C@@H]4O[C@H](CO[C@@H]5O[C@@H](C)[C@H](O)[C@@H](O)[C@H]5O)[C@@H](O)[C@H](O)[C@H]4O)cc3O2)cc1O  viability (A549; cell growth or viability, MTS; 100 µg/mL, 48 h): 52.1%
C1=[N+]2CCCC[N+]3=Cc4ccc5[n]4[Au-]23[n]2c1ccc2-c1nc2ccccc2nc1-5.F[P-](F)(F)(F)(F)F  GI50 (prostate cancer cell lines; NCI60 panel mean): 7 µM
COc1cc(CNC(=O)C[C@H](C)CCC=C(C)C)ccc1OCc1cn(-c2ccccc2)nn1  growth (A549/ATCC; SRB; 10 µM, 48 h): 94.1%
O=[N+]([O-])[O-].[NH3+][Pt-2]1([NH3+])[O]C(C(F)(F)F)=CC(c2ccccc2)=[O+]1 (stereo not drawn)  mean growth (NCI-60 panel; SRB; 10 µM, 48 h; baseline: untreated): 89.7%
COc1cc(CNC(=O)C[C@H](C)CCC=C(C)C)ccc1OCc1cn(-c2ccccc2[N+](=O)[O-])nn1  growth (MDA-MB-231/ATCC; SRB; 10 µM, 48 h): 71.9%
Cc1nccn1-c1nc(NN=Cc2c[nH]c3ccccc23)nc(Nc2ccc(Br)cc2)n1  LC3-II level (A549 and SK-BR-3; autophagy, Western blot; 3 µM, 20 h): increased
CC(Cc1ccc(Cl)cc1)=C(c1ccc(Cl)cc1)c1ccc(OCCN(C)C)cc1  GI50 (OVCAR-8; cell growth or viability): 5.75 µM
COc1cc2c(C=C3C(=O)Nc4ccccc43)c[nH]c2cc1C  TGI (ovarian cancer subpanel of NCI-60; 48 h): 7.76 µM
COc1cc(CNC(=O)C[C@H](C)CCC=C(C)C)ccc1OCc1cn(-c2ccc(Br)cc2)nn1  growth (A549/ATCC; SRB; 10 µM, 48 h): 78.6%
C(=C/c1ccccc1)/c1ccccc1  lowest effective concentration (MOLT-3; apoptosis, refers to: caspase-3 activity; 24 h, lowest dose with significant induction; baseline: vehicle): 10 µM

Repeated from above:
O=C1OCC2=C1C(c1cccc(Br)c1)C1=C(N2)C(=O)c2ccccc2C1=O (stereo not drawn)  total apoptotic cells (SK-LU-1 cells; annexin V/PI; 0.32 µM, 24 h): 21.1%
CC(=O)c1c(C)c2cnc(Nc3ccc(N4CCNCC4)cn3)nc2n(C2CCCC2)c1=O  S6 phosphorylation (CHO cells; Western blot; concentration not given): no effect
Cc1nn(C)c(O)c1-c1nc2cc(Cl)c(Cl)cc2[nH]c1=O  apoptotic cells (TF-1; annexin V flow cytometry; concentration not given, 24 h, treated at IC50): ~30%
COc1cc(CNC(=O)C[C@H](C)CCC=C(C)C)ccc1OCc1cn(-c2ccccc2[N+](=O)[O-])nn1  growth (MDA-MB-231/ATCC; SRB; 10 µM, 48 h): 71.9%
CSCC[C@H](NC(=O)[C@@H](NC(=O)[C@H](CC(C)C)NC(=O)[C@H](CC(N)=O)NC(=O)[C@@H](NC(=O)[C@@H]1CCCN1C(=O)[C@H](CCCNC(=N)N)NC(=O)[C@@H](N)CCC(N)=O)C(C)C)[C@@H](C)O)C(=O)N[C@@H](CCCNC(=N)N)C(=O)N[C@@H](CCCNC(=N)N)C(=O)N[C@@H](CCCCN)C(=O)N[C@@H](CC(C)C)C(=O)N[C@@H](CCCNC(=N)N)C(=O)N[C@@H](CCCCN)C(=O)N[C@@H](Cc1c[nH]cn1)C(=O)N[C@@H](CC(N)=O)C(=O)N[C@H]1CSSC[C@@H](C(=O)N[C@@H](CCSC)C(=O)N2CCC[C@H]2C(=O)N[C@@H](CC(C)C)C(=O)N[C@@H](Cc2c[nH]cn2)C(=O)N[C@@H](CO)C(=O)N[C@@H](CCCNC(=N)N)C(=O)N[C@H](C(=O)N2CCC[C@H]2C(=O)N[C@@H](Cc2ccccc2)C(=O)N2CCC[C@H]2C(=O)O)C(C)C)NC(=O)[C@H](CCCNC(=N)N)NC(=O)[C@H](CCCNC(=N)N)NC(=O)[C@H](CCC(N)=O)NC(=O)[C@H](CC(C)C)NC1=O  BRET signal (HEK293; β-arrestin2 recruitment, BRET; baseline: wild type receptor): decreased
